Measurements pooled from the literature.
Every numbered part comes from another study and shows a few of its results, in no order.

Block 1
Target: Hepatocyte nuclear factor 3-alpha (Foxa1, Mus musculus, UniProt P35582, residues 1-468, full length assumed)
Technique: EMSA with sequencing
Molecule type: double-stranded DNA, one strand shown
Medium: in vitro
Tested at: 10 and 20 nM
Setting: whole designed probe, mean of two concentrations, ends assumed
Reference: negative control set to 0
Reading: higher = stronger binding
All sequences stand within: GTGAGCGGTGCCCATTGATGGGGAAC … TTTCACTGGGATCGTGGGGAC
Residues (chain): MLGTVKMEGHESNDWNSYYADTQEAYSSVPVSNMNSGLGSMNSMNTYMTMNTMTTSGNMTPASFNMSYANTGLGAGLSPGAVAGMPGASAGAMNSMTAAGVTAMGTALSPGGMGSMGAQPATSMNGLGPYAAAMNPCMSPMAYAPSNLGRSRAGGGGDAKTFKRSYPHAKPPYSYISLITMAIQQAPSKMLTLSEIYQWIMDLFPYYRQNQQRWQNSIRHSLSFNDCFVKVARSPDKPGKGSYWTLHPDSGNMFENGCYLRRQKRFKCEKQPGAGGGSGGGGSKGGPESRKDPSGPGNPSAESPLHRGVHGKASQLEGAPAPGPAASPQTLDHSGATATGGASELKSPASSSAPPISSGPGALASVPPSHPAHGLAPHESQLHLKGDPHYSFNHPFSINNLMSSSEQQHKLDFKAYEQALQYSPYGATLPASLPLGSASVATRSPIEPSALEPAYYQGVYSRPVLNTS
`ACATTCACTCACCATTCACTTACTGACTCACCTAGAGCAACTTTCAGTCCTGCAAGCTCCATTCATGGTAAATGCCCTGTACAGGTGTACCATTGTTTACTTTTTATACCTTTTTTTTTTTTTTTTTTTGAGATGGAGTCTTGCTCTTGTCACCCAGTCTGGAGTGCAATGGTACAATCTTGGCTCACTGCAA` — result for “normalised bound fraction”: 0.469 ratio.
`AGACAAAAAATGTAGTTGTTCAACAGCTCAGGGAAGAAAGCCTGAGCTTGCCACAGGAGGAGACAGGGCTAAGGCTGGGGAGTTGGGGGGAGTGTAAATAAAGTAGAGGACTGGGCAGTGCTACAAGAAATATTTAGCATTCCTGGCTTCCCACAAAGGGTAGGTCAAGGAGAGGGAATGAGCAGTTGGGATG` — result for “normalised bound fraction”: 0.235 ratio.
`TTCCATCGTTTGCTTTTACTGTAAAGTAATATTAAGGAATTAGCCAACAGTATTTACTGAGTGACTGGTATTTACCTCTGATCCTTTGAGGACTTGTTTGCATTTCAGCTCAGGTTTTCTGACTAAGGAGATAAAAACATCTCCTGGACTATTTATTTTTTTCCGTGACCTAACCCAAGGACTTTGCACTGGG`: “normalised bound fraction” 0.413 ratio.
`CTTGCTTACTGCTAGCACAGCAGTCTGAGATGCATCTGCGAGGCGGCAGCCTGGCTGGGGGAGGGGTATCCGCCATTGCTGAGGCTTGAGTAGGTAAACAAAGCAGCCAGGAAGCTCGAACTGGGCGGAGCCCACCTCAGCTCAACAACGCCTACTGCCTCTAGACTCCACCTCTGTGGGCAGGGCACAGCTG`: “normalised bound fraction” 0.409 ratio.
`TCGCATATAACTCTTCTACAGAGGAATCTAGACTTGGTGAATGCACCATTGTTCTCCGAAGGGCCCCTCCACCTAAAACGGGGCAGGAACCAATGTAAACACCGGCGTTAGTGGGTCAGGTAAGTGATCCTGAGGCATAGGGGGTGAGGTAGCGTGAGTTAGCATCAGGCTCATATAGAGGACGCAATAAAGA` — result for “normalised bound fraction”: 0.296 ratio.
`GCTCTGGGCAGTCACCCAGGTACCACAAAATCCCTATGGGTGTGCATCTCCTTTGTTACCCATGTGTATACTCCCTCCCTGACGTCAAAGCCAAGATTGCTCAGCTTGATGAAAATGTGTTTCTTGAAAGCCACATTCTTTTCCTTTTCTGAGCCAGTGAGGTTTCTGCAGAGCTCATGGTGCTGATGTTTCC`: “normalised bound fraction” -0.0778 ratio.

Block 2
Target: Sal-like protein 4, full length isoform A (SALL4, Homo sapiens, UniProt Q9UJQ4, residues 1-1053)
Sequence of UniProt Q9UJQ4 (whole entry, looked up): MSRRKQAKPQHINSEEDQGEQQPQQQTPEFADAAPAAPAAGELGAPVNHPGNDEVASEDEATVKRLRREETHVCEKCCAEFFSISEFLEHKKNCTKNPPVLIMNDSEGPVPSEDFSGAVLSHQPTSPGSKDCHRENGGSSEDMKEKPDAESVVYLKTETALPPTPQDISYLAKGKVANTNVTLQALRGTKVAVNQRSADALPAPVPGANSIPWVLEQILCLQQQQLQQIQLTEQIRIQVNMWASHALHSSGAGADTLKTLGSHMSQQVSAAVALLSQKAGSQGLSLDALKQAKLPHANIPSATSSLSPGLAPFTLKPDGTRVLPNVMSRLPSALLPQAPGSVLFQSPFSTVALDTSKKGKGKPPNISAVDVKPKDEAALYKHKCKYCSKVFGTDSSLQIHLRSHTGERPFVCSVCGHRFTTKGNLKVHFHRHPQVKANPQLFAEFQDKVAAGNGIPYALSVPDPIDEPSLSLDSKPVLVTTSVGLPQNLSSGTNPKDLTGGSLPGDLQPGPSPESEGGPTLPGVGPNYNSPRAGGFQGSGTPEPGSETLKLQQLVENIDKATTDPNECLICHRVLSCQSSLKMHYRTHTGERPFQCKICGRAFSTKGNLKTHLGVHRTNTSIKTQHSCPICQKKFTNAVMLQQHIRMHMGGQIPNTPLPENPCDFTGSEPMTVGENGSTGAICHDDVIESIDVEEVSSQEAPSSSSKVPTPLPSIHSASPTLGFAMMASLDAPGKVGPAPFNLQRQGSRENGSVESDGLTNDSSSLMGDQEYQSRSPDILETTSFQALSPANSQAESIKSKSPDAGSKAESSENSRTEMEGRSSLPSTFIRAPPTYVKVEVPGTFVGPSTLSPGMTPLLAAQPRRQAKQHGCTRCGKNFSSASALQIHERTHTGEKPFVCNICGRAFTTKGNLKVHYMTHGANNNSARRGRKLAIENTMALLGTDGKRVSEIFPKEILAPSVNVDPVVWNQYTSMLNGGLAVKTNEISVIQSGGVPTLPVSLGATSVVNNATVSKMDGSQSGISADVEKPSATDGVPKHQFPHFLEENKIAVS
Technique: universal PBM
Molecule type: double-stranded DNA, one strand shown
Medium: in vitro
Tested at: 600 nM
Setting: 8-mer, flanks averaged, mean of replicates
Reading: higher = stronger binding
`GGTGGAGA` gave an E-score of -0.303.
`TCACAACA` gave an E-score of 0.184.
For `CTACGTTC`, the E-score was 0.0013.
`GGACACGA` has an E-score of -0.128.
With `CTATTGTA` the E-score was 0.34.
The E-score of `ATTTCCTC` is reported as 0.0897.
For `ATGAGTTC`, the E-score was 0.107.
`CCAGCCAC` has an E-score of -0.205.
The E-score of `ACAACAGG` is reported as -0.000345.
For `ATATCGCC`, the E-score was 0.0984.
The E-score of `ATTCGGGC` is reported as -0.164.
For `CGGATCGC`, the E-score was -0.193.
`ATGGAGGC` has an E-score of -0.112.
The E-score of `GTCTCTCA` is reported as -0.136.
With `AGCTTGGG` the E-score was -0.231.
For `TAGTCGGA`, the E-score was -0.122.
The E-score of `CATAGGAG` is reported as 0.0934.
With `CTTCCTGA` the E-score was 0.0469.
For `GATCGTCA`, the E-score was 0.0818.
`ATCGTACA` gave an E-score of 0.276.
`ATACTCTG` gave an E-score of 0.147.
`CGCGCCGC` has an E-score of -0.285.
`GGCCCGAC` has an E-score of -0.376.
With `CGATCAGC` the E-score was -0.148.

Block 3
Target: Prothrombin, mature alpha-thrombin (F2, Homo sapiens, UniProt P00734)
Technique: aptamer microarray, sandwich
Molecule type: DNA with 2'F-ANA
Medium: in vitro
Tested at: 200 nM
Setting: whole 15-mer aptamer, many near background
Added: Cy3 exosite-II aptamer, 400 nM
Reading: higher = stronger binding
Sequence: GGTTGGTGTGGTTGG
Under “mean fluorescence intensity”, `2'F-ANA at 1 2 4 5 6 7 8 9 10 11 14` is recorded as 54.6 a.u.
For `2'F-ANA at 1 5 6 7 9 14`, “mean fluorescence intensity” read 49.7 a.u.
`2'F-ANA at 1 7 10 12`: “mean fluorescence intensity” 71.1 a.u.
Under “mean fluorescence intensity”, `2'F-ANA at 2 3 4 5 8 11 14` is recorded as 57.3 a.u.
Under “mean fluorescence intensity”, `2'F-ANA at 3 4 5 12 13 14` is recorded as 59.9 a.u.
For `2'F-ANA at 1 7 8 9 13`, “mean fluorescence intensity” read 159 a.u.
For `2'F-ANA at 3 5 7 9 10 15`, “mean fluorescence intensity” read 55.6 a.u.
For `2'F-ANA at 2 7 10 14 15`, “mean fluorescence intensity” read 91.8 a.u.
For `2'F-ANA at 1 3 4 6 11 12 13`, “mean fluorescence intensity” read 240 a.u.
`2'F-ANA at 1 2 3 4 7 10 11 12`: “mean fluorescence intensity” 71.8 a.u.
`2'F-ANA at 2 3 4 7 10 11 12 13 15`: “mean fluorescence intensity” 239 a.u.
`2'F-ANA at 4 5 6 8 10 11 12 13 15`: “mean fluorescence intensity” 51.9 a.u.
`2'F-ANA at 1 4 5 6 8 9 10 11 12 13` — result for “mean fluorescence intensity”: 72.3 a.u.
Under “mean fluorescence intensity”, `2'F-ANA at 1 2 3 7 10 11 12 13 15` is recorded as 90.8 a.u.
Under “mean fluorescence intensity”, `2'F-ANA at 2 3 4 7 10 12 13 15` is recorded as 248 a.u.
Under “mean fluorescence intensity”, `2'F-ANA at 3 6 8 12 13 14 15` is recorded as 591 a.u.
`2'F-ANA at 1 2 7 11 13 14`: “mean fluorescence intensity” 52.9 a.u.
For `2'F-ANA at 2 6 7 8 11 12`, “mean fluorescence intensity” read 508 a.u.
Under “mean fluorescence intensity”, `2'F-ANA at 1 3 4 8 11 14 15` is recorded as 72.9 a.u.
For `2'F-ANA at 1 4 5 6 7 9 10 11 14`, “mean fluorescence intensity” read 50.1 a.u.

Block 4
Target: RING finger protein unkempt homolog, zinc fingers 1-6, GST-SBP tag (UNK, Homo sapiens, UniProt Q9C0B0, residues 30-357)
Sequence of UniProt Q9C0B0 (30-357, looked up): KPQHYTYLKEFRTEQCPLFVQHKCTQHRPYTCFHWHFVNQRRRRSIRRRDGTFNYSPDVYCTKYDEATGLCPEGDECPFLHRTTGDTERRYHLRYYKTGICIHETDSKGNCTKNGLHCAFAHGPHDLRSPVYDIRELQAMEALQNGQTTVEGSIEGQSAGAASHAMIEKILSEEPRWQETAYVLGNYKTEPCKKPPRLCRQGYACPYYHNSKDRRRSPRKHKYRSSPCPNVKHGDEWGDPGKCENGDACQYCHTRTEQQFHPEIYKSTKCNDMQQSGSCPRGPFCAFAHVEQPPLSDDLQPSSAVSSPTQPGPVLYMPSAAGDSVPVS
Technique: RNA Bind-n-Seq
Molecule type: RNA
Medium: in vitro
Tested at: not given
Setting: RNA with constant flanks, ends assumed
Reference: input RNA pool
Reading: higher = stronger binding
All sequences stand within: GGGAGUUCUACAGUCCGACGAUC … CAACAGAGGAUUGAGCAUCA
With `GUUUGGCUAAAGCCAAAGAACAGCUUUUCAUAGCCACAUUUUGUAAUUCUUGAUAAGUGACCGCUUACCAAGCUGUCUUCAUUAAAAACAAAUUUGUCCUUAGCCCUACUUUUUCUCAAA` the bound/input enrichment was 0.559 ratio.
`AUUAGAAAUGAUACCUUCAGUGACUCACCAGUUUGGCCAUGGAUCCCAUCAUUGUCUGAUGCCGCAGCUGUGUUUUUCAAUAUGGGGAUUGAUUUUAGAUCUUUGUUUCCCCUGGAGAAU` has a bound/input enrichment of 0.199 ratio.
With `UCACACUUAUAUUGUGGCAUAUAGUCAACAUGGAAGUAGACCAGCUCUGCUGAUUUGAAAUUCCGAUUUUUUAAAUUAUGUACUGGGGACAGGUUUUUGUCGCUUUACAUUGCUUCCUAG` the bound/input enrichment was 0.349 ratio.
For `CCUUGGCCGACUACACCAGAGAAUACACAUUCAGUGACAUCUUGCUGAUGCUGUGCUUGCCCGUACUGCCAAGGCGAGUGUGUGGCCUUUCUUUCCAGCUCUCUGCAGAGAUGCUGGGGA`, the bound/input enrichment was 0.124 ratio.
`AUAUUUCAUAUUGCAAAGAUGUUUACAAGUAUUUUAAUUUAAGUUCAGUGAACUUUUUUGCCGCUGGGUUAAAUCUUUUUAUUUUUAGUAUGGCCUUAUGGCAAAGAACACUGUAUUAUU` gave a bound/input enrichment of 2.18 ratio.
For `GCCAUAAUCCCCUACAUCCCUACUCUCAUCACUCAGCUUACACAGAAGCUAUUAGCUGUCCGUAAGAACCCAAGCAAACCUCACUUUAAUCACUACAUGUUUGAAGCAAUAUGUUUAUCC`, the bound/input enrichment was 0.511 ratio.
The bound/input enrichment of `UUCUUCACCCGUAACCAUCUGCCUGUACCUAACCUGGACCCACACACCUAUCGCUUACAUGCCGCCGGGGCACCUGGAGGUCAGUCACUGUCUCUGUCCUUGGAUGAUUUGCAUAAGUUU` is reported as 0.242 ratio.
`GGAAGACCUUUCAACUCCAUUCAGAAGACAACAUUUAGUAAGGAGGAUGGCGGAGGUUACCCGUAAUUUUCAGAUGUCUUGGGCUUUUUCUGCCAACAAAACCCAAAAUCAAAUUAGAGU` gave a bound/input enrichment of 1.16 ratio.
The bound/input enrichment of `AUAUUGGAUGCAGUGUAACACUAUCCAAGGCAGUGACUUCAGCUUUAUAUACAUAUAAAAUACCGUCCGUUUUAAAAUUAUUGACAUUUAUUUAAACUUUUAGAUUGGAUUGUUUGCUAU` is reported as 1.81 ratio.
For `CAGGGAGUGGGUGACAUAGAGCAUUCUAUGCCUUUGACAUUGUCAUAGGAUAAGCUGUGUCCGCACUUCCUCAGGAAAUGAGAUUGAUUUUUACAAUAGCCAAUAACAUUUGCACUUUAU`, the bound/input enrichment was 0.516 ratio.
For `GCUCAGAGGGCCAUUAGUUCUGUUCCAGUUGGUAGACAACCCAUCAUCAUGCAGAGUACCCGCAAAUUUAACUUUACACCAGGGCGACCUGGAGUUCAGAAUGGUGGUGGUCAGUCUGAU`, the bound/input enrichment was 0.203 ratio.

A few entries again (block 1):
`TCGCATATAACTCTTCTACAGAGGAATCTAGACTTGGTGAATGCACCATTGTTCTCCGAAGGGCCCCTCCACCTAAAACGGGGCAGGAACCAATGTAAACACCGGCGTTAGTGGGTCAGGTAAGTGATCCTGAGGCATAGGGGGTGAGGTAGCGTGAGTTAGCATCAGGCTCATATAGAGGACGCAATAAAGA` — result for “normalised bound fraction”: 0.296 ratio.
`AGACAAAAAATGTAGTTGTTCAACAGCTCAGGGAAGAAAGCCTGAGCTTGCCACAGGAGGAGACAGGGCTAAGGCTGGGGAGTTGGGGGGAGTGTAAATAAAGTAGAGGACTGGGCAGTGCTACAAGAAATATTTAGCATTCCTGGCTTCCCACAAAGGGTAGGTCAAGGAGAGGGAATGAGCAGTTGGGATG` — result for “normalised bound fraction”: 0.235 ratio.
`TTCCATCGTTTGCTTTTACTGTAAAGTAATATTAAGGAATTAGCCAACAGTATTTACTGAGTGACTGGTATTTACCTCTGATCCTTTGAGGACTTGTTTGCATTTCAGCTCAGGTTTTCTGACTAAGGAGATAAAAACATCTCCTGGACTATTTATTTTTTTCCGTGACCTAACCCAAGGACTTTGCACTGGG`: “normalised bound fraction” 0.413 ratio.
`GCTCTGGGCAGTCACCCAGGTACCACAAAATCCCTATGGGTGTGCATCTCCTTTGTTACCCATGTGTATACTCCCTCCCTGACGTCAAAGCCAAGATTGCTCAGCTTGATGAAAATGTGTTTCTTGAAAGCCACATTCTTTTCCTTTTCTGAGCCAGTGAGGTTTCTGCAGAGCTCATGGTGCTGATGTTTCC`: “normalised bound fraction” -0.0778 ratio.
